Experimental data gathered from unrelated publications.
Every numbered part comes from another study and shows a few of its results, in no order. Substitutions count along the parent as printed.

Sample 1 — technique: RNA Bind-n-Seq; form: RNA; matrix: in vitro; tested at: not given; relative to: input RNA pool; direction: higher = stronger binding
Target: RING finger protein unkempt homolog, zinc fingers 1-6, GST-SBP tag (UNK, Homo sapiens, UniProt Q9C0B0, residues 30-357)
UniProt Q9C0B0, sequence (30-357, looked up): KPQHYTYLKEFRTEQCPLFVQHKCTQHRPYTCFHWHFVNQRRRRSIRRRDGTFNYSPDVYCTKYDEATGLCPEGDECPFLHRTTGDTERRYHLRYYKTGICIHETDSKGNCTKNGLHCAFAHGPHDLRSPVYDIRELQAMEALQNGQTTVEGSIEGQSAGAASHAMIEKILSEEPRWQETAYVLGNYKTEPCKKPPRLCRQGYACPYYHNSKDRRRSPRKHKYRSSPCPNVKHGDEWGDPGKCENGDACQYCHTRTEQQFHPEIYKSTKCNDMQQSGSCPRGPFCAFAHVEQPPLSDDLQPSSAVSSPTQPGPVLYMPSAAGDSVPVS
Setting: RNA with constant flanks, human-mouse chimeric sites, ends assumed
Constant ends, left off below: GGGAGUUCUACAGUCCGACGAUC … CAACAGAGGAUUGAGCAUCA
Strand | bound/input enrichment
UCAGUCUUUUUGUACAGCUUUGUAAAUUCUUAACAUUUUUAUAUUGCCAUGUUUAUUUUGUUUGGGUAAUUUGGUUCAUUAAGUACAUAGCUAAGGUAAUGAACAUCUUUUUCAGUAAUU | 1.06 ratio
UUUCUACUGCAGCAAACGAUGCUAAGAAUUAAGGAUCCUAAGAAGUCCCUGGAUUUUUAUACUAGAGUUCUUGGACUGACCCUCCUGCAGAAGCUUGACUUCCCUGCUAUGAAGUUUUCG | 0.616 ratio
CGGAGCCCCUCCCUCUCACAGGCCCAAGAUAUAACCCACCAGUGCCUUUUGUCUUCCUGUCAGCUCUGUCAAUCACGCCUGUCCUCUGUCCCUCUCACCAAGUGCCCAAAGUGGGGAGGG | 0.467 ratio
CUGUGUGUGCUGAAUAAUGAUUUGUGAAAGAAGUUUUUCCAAGCUGUAACCCAUGCUUCCCUUAGAGUUGCUGCAAAAUGUUCUUCCUGAUAUUGAUUUUAUUUGUUAACUGAAGGUCUC | 0.555 ratio
CAGCCUCAGAGCCCAGACUUCCUGGAUAUCACCAACCCUAAAGCGGUAUUAGAAAACGCAUUGAGAAACUUCGCCUGUCUGACGACUGGAGAUGUGAUUGCUAUCAACUACAAUGAGAAG | 0.34 ratio
UUGAAAACUGAUUCAAGUAAGUUUGAGUAUCACAAUGUUAGCUUUCUAAUUCCAUAAAGAUAGUUUUUUUUUACAGUUUAUAAUCUGACAUCACCCCAGCGCCAUUUAGAUCAGCUUACU | 16.4 ratio
CUGAGGAAUACCACUGAGAGACCUUAAAAGGAGUCAUUGAGGGCUCUGUUCGUGCAAGAAUAGUCACUGAUCGGGAAACUGGUUCUUCCAAAGGGUUUGGUUUUGUAGACUUUAAUAGUG | 0.873 ratio
UACUCAACUUUCUUGCCACAUUUUGAAUUCCAAGACAUUAUUCCUCCAGAUGACUUUCUAACGAGUGAUGAAGAGCAAGAUUUGGUUUUAUUUGGAAGUUUGAGAGGACAAGUUGUUGGA | 0.175 ratio

Sample 2 — technique: EMSA with sequencing; form: double-stranded DNA, one strand shown; matrix: in vitro; tested at: 10 and 20 nM; relative to: negative control set to 0; direction: higher = stronger binding
Target: Hepatocyte nuclear factor 3-alpha (Foxa1, Mus musculus, UniProt P35582, residues 1-468, full length assumed)
UniProt P35582, sequence (whole entry, looked up): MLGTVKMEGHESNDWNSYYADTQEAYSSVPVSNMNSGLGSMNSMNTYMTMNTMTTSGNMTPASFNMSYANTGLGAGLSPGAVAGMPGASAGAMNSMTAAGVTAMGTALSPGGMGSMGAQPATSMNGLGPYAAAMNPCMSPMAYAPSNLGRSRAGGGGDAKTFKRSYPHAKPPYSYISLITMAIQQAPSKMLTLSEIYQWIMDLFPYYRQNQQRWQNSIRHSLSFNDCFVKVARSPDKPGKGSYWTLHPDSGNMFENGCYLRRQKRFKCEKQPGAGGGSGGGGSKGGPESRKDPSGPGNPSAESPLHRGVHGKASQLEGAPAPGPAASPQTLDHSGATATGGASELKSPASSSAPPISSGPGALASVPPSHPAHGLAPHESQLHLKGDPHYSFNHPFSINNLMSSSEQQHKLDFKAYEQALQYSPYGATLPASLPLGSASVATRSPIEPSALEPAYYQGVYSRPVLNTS
Setting: whole designed probe, mean of two concentrations, ends assumed
Constant ends, left off below: GTGAGCGGTGCCCATTGATGGGGAAC … TTTCACTGGGATCGTGGGGAC
Strand | normalised bound fraction [ratio]
ATGAGTGTGCATATAATTTGACAGTGACCTCTTGCACTAGACTAATCAGTAAGACTGACTTTCCCTGATGTTGCTGTCAAGGAAGATGCTTCCTTGTTTACTCATTCATGGGCATTGCTCTTGAAAAATGTATAACCATGTGAGTCATTTCTATGCTTCAGTGTAAAACAAGAATTTCCCCCCAAATTTTAGA | 0.258
ATCTTCCCCCTCTTCCTTGCCCCACCAGTTTACCTTCCCGGGTTATTTGCAGATAGGAAAATAAATAAAGCCGGCATTCGTTAACCCTCTTCTGGCGCAAACTGCTGTTTGCTCTGGATGAATCATGGTCCTTTGGCGACGCCAGGCTCCGGGAGAGCAAAGCACCGTGTCAGGGCCATGATCCGGGGTGGCC | 0.32
ATTTATAAAAAGAGGAAATTATTCATGCCATCAGCACTCCCCATCAATAACAGGAGGAAACCTAACTATCTCATTACCCCATCACACTGTGTGCAAACAGAACTGCCCGTTGTTGACAATAAATATTTGATAAGTGAGGAAACAGGAAGGATAAACCAAGGGTGCAGAGTGGAGCTGCACAGTTGCCAGGAGA | 0.28
GGACACAGCCAGAGGCCATGAGTGCTCAGGAGTGCCATAAACTGTGATTTTGAGACTGATAAGGCCAGGCCTGGGTGTGTCTAAATAGCTTGTTGTTTGCCTTTTTATATTTGAGGCCTATAAAAAAATAGTGAGAAAATAGCAAGATGCCCAGGAGACAGGTGATCTGATTCAGCCAGGGGGTGGGAGGTGG | 0.071
AATTTCACTAATTACTGATTCTATGAATAGGATAATGATTATGAAGAAAAATGCAAAAGTACAATCTCTTGAGCTGAAGAAAAAAATACAGAGTAATCTTGCTCCTCATAAGAATACTGTCTAAATCGAATGACCAACAAGACTGATTTGATGTTTGGTTGCAGAGATACTAGTCAAGTTTATTTTAATTCTT | 0.00742
CTCATTCCTTGCTTCCGCCAATAATCTGACTAGTAAAGAAGTCACTGCATGCCACAAATTGTCAGTGAGTGACTCAGCAACAAGGAAGTTATTTATTTACTTATTTAATATATGAGTGTCACAGATGCAAATTCCATCTTGAGAATACCAACTCCTGATGCCAACTGATTGTCAGTCATGGCTACAACAGGAG | 0.454
TTAGACCCTTTAAGTAAATTGCAAACAGTTCCCCCTGTGTGAAGCATTGTCTAGCCTACCAAACTGCCTGAAACAATCGTTGACATTTCTTGTGTAATTTACAGCAGTGGATTCAGCGCTTCCAAGAATGGGAGTTGAAAAAATAATGAACTATGTTTTTTTCAAGATAAAACACACTGTGCTCTCCAGAAAT | 0.0607
ATCTTCCCCCTCTTCCTTGCCCCACCAGCTCACCTTCCCGGGTTATTTGCAGATAGGAAAATAAATAAAGCCGGCATTCGTTAACCCTCTTCTGGCGCAAACTGCTGTTTGCTCTGGATGAATCATGGTCCTTTGGCGACGCCAGGCTCCGGGAGCATAAAGCGTCACACGGGGGCCATGATCCGGGGTGGCC | 0.345

Sample 3 — target: CCNB3, cyclin fold, Cln2 fusion (human); technique: yeast growth competition, sequencing; matrix: yeast; setting: weak parent motif; relative to: not given; direction: higher = stronger binding
Parent: SGO1 docking peptide (human); PLAKRALKYTDEK; partner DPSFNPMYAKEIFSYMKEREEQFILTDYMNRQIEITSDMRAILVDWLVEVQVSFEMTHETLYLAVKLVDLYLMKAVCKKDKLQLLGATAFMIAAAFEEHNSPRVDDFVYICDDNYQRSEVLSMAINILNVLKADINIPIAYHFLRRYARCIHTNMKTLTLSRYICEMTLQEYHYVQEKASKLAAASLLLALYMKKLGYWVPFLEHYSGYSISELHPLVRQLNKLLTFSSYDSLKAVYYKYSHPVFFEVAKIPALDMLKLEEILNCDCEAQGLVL
Change | normalised enrichment score
PLAKRALKYTDEA [K13A] | -0.267
PLAKRALKYADEK [T10A] | 0.358
PLAKRALKYTAEK [D11A] | 0.0215
PLAKRALKATDEK [Y9A] | -0.0471
PLAKAALKYTDEK [R5A] | -0.149
PLAARALKYTDEK [K4A] | 0.0771

Other studies, line by line
SMILES | test system | setting | quantity | result
N#Cc1nc(-c2cccc3ccccc23)oc1NCc1cccnc1 | human, microsomes or S9 | 2 µM, 0.5 h | remaining compound | 8.12%

Excerpt of the above (sample 3):
Change | normalised enrichment score
PLAKRALKYTAEK [D11A] | 0.0215
PLAKRALKYTDEA [K13A] | -0.267
